Measurements gathered from unrelated publications.
Each numbered part is a random draw from the data of one study; scales do not carry over between parts.

Sample 1 — technique: RNA Bind-n-Seq; molecule type: RNA; matrix: in vitro; tested at: 200 nM; setting: whole 134-nt RNA, ends assumed; together with: 150 mM LiCl; reference: input library; reading: higher = stronger binding; all molecules: 7-deaza-guanosine replaces G
Target: Fragile X messenger ribonucleoprotein 1, C-terminal low-complexity region (Fmr1, Mus musculus, UniProt P35922)
Strand	log2 enrichment
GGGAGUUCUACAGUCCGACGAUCGUGGACAACGCGUACUGGCUGUGGACUUUCCAGGGACGCCUCCUGCAGAAGAACAACAAGGACCGCUUCUGCCAGCUGCUGUGGCGGCCCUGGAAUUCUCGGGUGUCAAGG	-2.32
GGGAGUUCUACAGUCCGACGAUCUUCCUCAAGUCCUGUGCUACACAUCGUAUGUACCGAAUCGGAGGAGGGAGGAAAGUAUUAUGUUACGCCGUUCGGAUCUGCACUUCCAGCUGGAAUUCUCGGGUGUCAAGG	-2.21
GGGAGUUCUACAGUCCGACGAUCAAGUCCUGUGCUACACAUCGUAUGUACCGAAUCGGGUUUUUUUGGGUUUGGGUGGGAAAGUAUUAUGUUACGCCGUUCGGAUCUGCACUUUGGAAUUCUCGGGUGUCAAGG	-1.57
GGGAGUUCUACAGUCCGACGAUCUCAAGUCCUGUGCUACACAUCGUAUGUACCGAAUCGGGAGGGAAAGGGAAAGGGAAAGUAUUAUGUUACGCCGUUCGGAUCUGCACUUCCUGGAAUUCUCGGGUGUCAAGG	-0.472
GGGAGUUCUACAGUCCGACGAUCUAACUUUAGAGGAGGAUCUGAUGGAUAUGGCAGUGGACGUGCAUUUGGGGAUGGCUAUAAUGGGUAUGGAGGAGGACCUGGAGGUGGCAAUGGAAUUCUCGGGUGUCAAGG	-0.93
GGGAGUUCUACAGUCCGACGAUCGCAGGAAGUAAAAACAAAUGGAAAUGCUUCGGAUAGUGGCAGGGGUGGGGGUUGCUAAGGAAAGGGUGGGAUGGGAGUGGGUAAAGCGUUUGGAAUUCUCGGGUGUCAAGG	1.57
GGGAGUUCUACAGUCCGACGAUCCAAGUCCUGUGCUACACAUCGUAUGUACCGAAUCGGGUUUGGGUUUGGUUUGGGGAAAGUAUUAUGUUACGCCGUUCGGAUCUGCACUUCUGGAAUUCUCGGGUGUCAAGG	-0.908
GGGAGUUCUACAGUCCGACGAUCCAAGUCCUGUGCUACACAUCGUAUGUACCGAAUCGGUUUUUGGUUUUUUUGGUGGAAAGUAUUAUGUUACGCCGUUCGGAUCUGCACUUCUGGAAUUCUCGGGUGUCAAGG	-1.29
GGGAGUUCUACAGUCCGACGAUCCACAGACAACACGCACCCACACAGACACAGAGUGAAGGGGUUGGGAUGGGGACAGGGUGCACAGCAGGGCGGGGUAGGACCCCAGCCCCUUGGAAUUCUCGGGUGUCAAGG	0.0711
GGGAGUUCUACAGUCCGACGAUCUCCUGUGCUACACAUCGUAUGUACCGAAUCGGUUUUUUGGGGUUUUUUGGGUUUUUUGGAAAGUAUUAUGUUACGCCGUUCGGAUCUGCAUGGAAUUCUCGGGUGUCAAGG	0.227
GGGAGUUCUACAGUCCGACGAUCCAAGUCCUGUGCUACACAUCGUAUGUACCGAAUCGGGCCCGGCCCGGGGCCCGGGAAAGUAUUAUGUUACGCCGUUCGGAUCUGCACUUCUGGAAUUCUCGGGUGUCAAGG	-2.24

Sample 2 — technique: RNA Bind-n-Seq; molecule type: RNA; matrix: in vitro; tested at: 365 nM; reference: no-protein control; reading: higher = stronger binding
Target: RNA binding protein fox-1 homolog 2, RRM domain, GST-SBP tag (RBFOX2, Homo sapiens, UniProt O43251-10, residues 100-194)
Setting: natural RNA segment, single round, ends assumed
Strand	RBNS enrichment (R)
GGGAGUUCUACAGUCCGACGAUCAGACUGGCUCAAAAAAGAAAGAAGCAACGAAAACAAAAUGCACAGCCUGAAUGGACGUAGCACUGUCAUGUGGCAUUUGGAAAAUCUUUAAUUAUCCUAAUGUUAUUUCAUGGAAUUCUCGGGUGCCAA	1.16
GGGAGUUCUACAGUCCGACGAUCCCUCACAUCCACCCUCCGCCCUUCCAAUUGCGCUCCCGGUUUGCAGUAAGGAAGAGGGAAGCUGAAGAAGAGGAACCUCCCCUGCCUGCCCCUGAAGCCUGGAUCAUUCGUGGAAUUCUCGGGUGCCAA	1.16
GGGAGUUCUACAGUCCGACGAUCGCUCGACCAAGCCGAAUUGCAAACAACGUUCGUUCUAUUUUUAAAUGUACAGGUUCGAUCGUUUCUAUAGAAAUGGGUUUAUCUAAGAAAAGUCUUGGUUUGUCUUGCUGUGGAAUUCUCGGGUGCCAA	0.603
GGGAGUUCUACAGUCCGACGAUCGACAUUGUCUUGGAGAACACUUGGCUCGGAUGGAAAUGUUCUUGUUUUUUACAGCAUUGCUUCAGAGGUUUCAUUUGCAUUUUCCACAUGAACUAGUUCCAGAUCUGAAGUGGAAUUCUCGGGUGCCAA	0.557
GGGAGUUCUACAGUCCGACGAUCGACAAUGUGAGAGGACAAAGUAUGAAGAGUCUGGUUUUUACUAGAACCUGACAGAGAAGGGAAGGUUUCUAUAAAAAGAGACACCAGGCUUUGGGGGCCAGGGCUUCAUGUGGAAUUCUCGGGUGCCAA	0.52
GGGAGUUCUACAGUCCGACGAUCCCAGCAGAGCCCCCAGGGCCAGGCCCCACCCACCUGCCACCUGUCCUCCCUGGGACACUUGUAAGUACAAAGCUCCCCAGCCUUUGAGGCCUCAACCCCCCACCAUCUGUUGGAAUUCUCGGGUGCCAA	0.506
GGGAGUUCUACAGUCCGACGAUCCCUGCAGCUAGUCAUAGUGAAGCCCACCCUAAGGCCCUGUGAGCGCCAGCUCCCUCACAUGUACUUGGUCCAACUGUAGGUGACUGGUUAUCACAUCUUCACUGGCCCCUUGGAAUUCUCGGGUGCCAA	0.624
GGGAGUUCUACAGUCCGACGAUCGUACAUAGGAAUCUAGCAAAUUCAGGAACCAAGGGGAAAUGUUGUGAGAUAACAUUUACAUUGUCAACCUUUAUUGACUUUGUUUUUACAAUAAAAAAUAUUUUACAACUUGGAAUUCUCGGGUGCCAA	0.45
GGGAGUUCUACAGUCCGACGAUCGGCAUCACUUUGUCUUAGCAAUUAAUGGGAUAUUGAUUACUAAAAUAAGUUAAUAUUAAGCAAGGUGCCGGUUGUACAAUCUCUGAUCAGUGUCUUUUCAGCACUUUGAGUGGAAUUCUCGGGUGCCAA	0.409

Sample 3 — technique: protein binding microarray; molecule type: double-stranded DNA, one strand shown; matrix: in vitro; tested at: not given; reference: not given; reading: higher = stronger binding
Target: Histone acetyltransferase KAT6A, winged helix 2, GST fusion (KAT6A, Homo sapiens, UniProt Q92794, residues 85-181)
Setting: 8-mer, flanks averaged, mean of 2 arrays, mostly near background
Construct (chain): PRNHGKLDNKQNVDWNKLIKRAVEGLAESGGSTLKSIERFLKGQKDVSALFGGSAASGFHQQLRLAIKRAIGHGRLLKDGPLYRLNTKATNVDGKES
Strand	E-score
GTATCGAC	0.102
GATAGGAA	0.0841
ATGGGAAC	0.0514
CGCTCACG	0.145
ATGTCGGA	0.0137
AAGCTAAG	-0.163
CACCCGGC	0.0789
GAGTGAGA	0.0718
AAACGCAC	0.0397
CATCGCTC	0.0903
CTCTACAA	-0.0454
ATCGCAAT	0.0252
GTGGGGAA	0.128
ACTCAGTA	-0.0419
AAGACTAT	-0.166
CGCCTACA	-0.0502

Sample 4 — technique: RNA Bind-n-Seq; molecule type: RNA; matrix: in vitro; tested at: not given; setting: RNA with constant flanks, ends assumed; reference: input RNA pool; reading: higher = stronger binding
Target: RING finger protein unkempt homolog, zinc fingers 1-6, GST-SBP tag (UNK, Homo sapiens, UniProt Q9C0B0, residues 30-357)
Chain of UniProt Q9C0B0 (30-357, looked up): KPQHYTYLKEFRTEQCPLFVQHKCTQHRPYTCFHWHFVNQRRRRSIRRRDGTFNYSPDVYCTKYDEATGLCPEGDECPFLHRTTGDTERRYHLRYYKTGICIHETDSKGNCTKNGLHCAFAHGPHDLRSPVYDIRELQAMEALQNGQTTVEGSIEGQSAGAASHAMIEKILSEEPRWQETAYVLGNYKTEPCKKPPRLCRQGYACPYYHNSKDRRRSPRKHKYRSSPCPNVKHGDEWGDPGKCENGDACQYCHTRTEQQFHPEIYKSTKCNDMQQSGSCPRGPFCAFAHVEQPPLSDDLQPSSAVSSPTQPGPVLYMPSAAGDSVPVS
Strand	bound/input enrichment
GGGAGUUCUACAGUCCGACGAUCAGAAAGCAAAACUUGGAACGAUUUAAGAAAGGAGACGUAAGAUUCUUGAUUUGCACAGAUGCCGCUGCUAGAGGGAUUGAUAUCCAUGGCGUUCCUUAUGUGAUCAACGUCACCCUGCCUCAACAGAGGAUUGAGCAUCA	0.113 ratio
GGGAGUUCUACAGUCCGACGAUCGAACAGUCCCAGGGCUCCACCACAAAUAGUGACUGGAUGAAAAACCUCAUCUCCCCUGACUCCGGAGUUGUAUUUCUCAAUGUACCUGAAAAUCUCAAAAAUCCAGAGCCAAACAUCAAGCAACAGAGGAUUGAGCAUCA	0.335 ratio
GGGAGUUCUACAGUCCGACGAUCGAUCUAAUCCAGGAUGUUGAAUGGGAUUAUUGCCAUCUUACACCAUAUUUUUGUAAAAUGCCGCUUAAUCAUAAUCUCACACUGAAGAUUUUGCAUCACUUUUGCUAUUAUCAUUCUUUUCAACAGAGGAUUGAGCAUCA	0.109 ratio
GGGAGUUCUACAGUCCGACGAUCAAUUUUCUUUUUUGGCCCUAGGCUGGUUGGGACCUCUACAGCUUCAUUCUUUCACCAUUAAACCGUGGCCUUUUUCAGUAUUUUCCCUCUUCCCCUUUAUAAAUUAUGCUAAAGCCACAACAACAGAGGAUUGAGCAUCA	1.75 ratio
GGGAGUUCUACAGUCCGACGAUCAAACCUGUAGGGUUUGGAGAAGAGUUUGACGAGGAUGAGCUCAUGGCGGAAUUAGAAGAACCCGAACAGGAGGAACUAGACAAGAAUUUGCUGGAAAUCAGUGGACCCGAAACAGUCCCUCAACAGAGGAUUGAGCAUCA	0.324 ratio
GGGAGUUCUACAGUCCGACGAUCAGGGUUGAUGUUCUGAAGAACCACUUGGUGAAAGAAGGUCGAGUAGAUGAAGAAAUUGCGCUCCGAAUUAUCAAUGAGGGUGCUGCCAUCCUUCGGAGAGAGAAAACCAUGAUAGAAGUACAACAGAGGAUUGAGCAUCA	1.38 ratio
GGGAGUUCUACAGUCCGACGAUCUGUGGUGGAGAAGGUAUCUCAUUCCUCUCUAACAUCAUCUCCACUUUGCAUCUGUCUCUCUCCGUCUGCUUUUUUUCCACCGAUGUAACAGACCUGGAGCCAGCAGGACUCAGAGGAAAGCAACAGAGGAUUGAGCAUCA	0.219 ratio
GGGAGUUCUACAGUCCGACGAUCGAAUUUGCCUAUACUUCUGUACUAAGUUUUGACUUUUGUAGCAUGGCUGAUGUAGCCGUCUCCGCUCGCCACCUUUUUAUGUCAGAAGUUUUAGAAAUUUGUGAAAGUGUACAUAAACUACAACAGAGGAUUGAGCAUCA	0.403 ratio
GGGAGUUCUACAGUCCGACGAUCUUUAUAGAAAUCACUGAUGACCAGUUUGACUUUCAUACAUACUGUAUGAGGAAGAUUACCCUCCGAUCAUAUGUGGACUUAUUAAAACUAGAAGAUGUACUUCGACAGCAUCCAUUUUACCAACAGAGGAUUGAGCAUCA	0.885 ratio
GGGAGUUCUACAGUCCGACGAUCACUGAGCCAUUUCCUAUUUUAAAUGGCUUCUACAGUAAAUUAACAACUCAGUUAUUAAACCCGCAGGAUCCUACAAUGAUACAUCUAGUGAAAGUAGAGUUAAUUAACUUAUUUCUAUUUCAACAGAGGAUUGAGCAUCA	0.853 ratio
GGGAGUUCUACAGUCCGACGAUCCAAGGAAUGUUUCGGCAGGGAAGCUGGCCCGAGGCUGCGGGUGGCAUCUGAAGGCACUGGCCGGUGUGGAAGAGGCCCCACAGAUGCCAGACUGCACCAAGAAUUAGUAUCUUUCACAGCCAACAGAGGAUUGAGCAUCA	0.697 ratio

A few entries again (sample 4):
Strand	bound/input enrichment
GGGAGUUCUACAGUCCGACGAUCUUUAUAGAAAUCACUGAUGACCAGUUUGACUUUCAUACAUACUGUAUGAGGAAGAUUACCCUCCGAUCAUAUGUGGACUUAUUAAAACUAGAAGAUGUACUUCGACAGCAUCCAUUUUACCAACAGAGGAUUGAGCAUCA	0.885 ratio
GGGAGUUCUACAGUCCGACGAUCGAACAGUCCCAGGGCUCCACCACAAAUAGUGACUGGAUGAAAAACCUCAUCUCCCCUGACUCCGGAGUUGUAUUUCUCAAUGUACCUGAAAAUCUCAAAAAUCCAGAGCCAAACAUCAAGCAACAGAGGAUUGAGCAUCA	0.335 ratio
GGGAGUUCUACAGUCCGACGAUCGAAUUUGCCUAUACUUCUGUACUAAGUUUUGACUUUUGUAGCAUGGCUGAUGUAGCCGUCUCCGCUCGCCACCUUUUUAUGUCAGAAGUUUUAGAAAUUUGUGAAAGUGUACAUAAACUACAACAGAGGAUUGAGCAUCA	0.403 ratio
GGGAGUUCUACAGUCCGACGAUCAGGGUUGAUGUUCUGAAGAACCACUUGGUGAAAGAAGGUCGAGUAGAUGAAGAAAUUGCGCUCCGAAUUAUCAAUGAGGGUGCUGCCAUCCUUCGGAGAGAGAAAACCAUGAUAGAAGUACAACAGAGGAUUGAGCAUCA	1.38 ratio
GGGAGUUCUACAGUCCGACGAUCCAAGGAAUGUUUCGGCAGGGAAGCUGGCCCGAGGCUGCGGGUGGCAUCUGAAGGCACUGGCCGGUGUGGAAGAGGCCCCACAGAUGCCAGACUGCACCAAGAAUUAGUAUCUUUCACAGCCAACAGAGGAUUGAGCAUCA	0.697 ratio
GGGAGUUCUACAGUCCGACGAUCAGAAAGCAAAACUUGGAACGAUUUAAGAAAGGAGACGUAAGAUUCUUGAUUUGCACAGAUGCCGCUGCUAGAGGGAUUGAUAUCCAUGGCGUUCCUUAUGUGAUCAACGUCACCCUGCCUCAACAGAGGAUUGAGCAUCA	0.113 ratio
